{"data": "Measured values from different studies", "HIPK1": "Homeodomain-interacting protein kinase 1 (HIPK1, Homo sapiens, UniProt Q86Z02)", "RET": "Proto-oncogene tyrosine-protein kinase receptor Ret (RET, Homo sapiens, UniProt P07949)", "MAP3K1": "Mitogen-activated protein kinase kinase kinase 1 (MAP3K1, Homo sapiens, UniProt Q13233)", "note": "Numbers after ± are the reported error.", "chain of UniProt Q86Z02 (whole entry, looked up)": "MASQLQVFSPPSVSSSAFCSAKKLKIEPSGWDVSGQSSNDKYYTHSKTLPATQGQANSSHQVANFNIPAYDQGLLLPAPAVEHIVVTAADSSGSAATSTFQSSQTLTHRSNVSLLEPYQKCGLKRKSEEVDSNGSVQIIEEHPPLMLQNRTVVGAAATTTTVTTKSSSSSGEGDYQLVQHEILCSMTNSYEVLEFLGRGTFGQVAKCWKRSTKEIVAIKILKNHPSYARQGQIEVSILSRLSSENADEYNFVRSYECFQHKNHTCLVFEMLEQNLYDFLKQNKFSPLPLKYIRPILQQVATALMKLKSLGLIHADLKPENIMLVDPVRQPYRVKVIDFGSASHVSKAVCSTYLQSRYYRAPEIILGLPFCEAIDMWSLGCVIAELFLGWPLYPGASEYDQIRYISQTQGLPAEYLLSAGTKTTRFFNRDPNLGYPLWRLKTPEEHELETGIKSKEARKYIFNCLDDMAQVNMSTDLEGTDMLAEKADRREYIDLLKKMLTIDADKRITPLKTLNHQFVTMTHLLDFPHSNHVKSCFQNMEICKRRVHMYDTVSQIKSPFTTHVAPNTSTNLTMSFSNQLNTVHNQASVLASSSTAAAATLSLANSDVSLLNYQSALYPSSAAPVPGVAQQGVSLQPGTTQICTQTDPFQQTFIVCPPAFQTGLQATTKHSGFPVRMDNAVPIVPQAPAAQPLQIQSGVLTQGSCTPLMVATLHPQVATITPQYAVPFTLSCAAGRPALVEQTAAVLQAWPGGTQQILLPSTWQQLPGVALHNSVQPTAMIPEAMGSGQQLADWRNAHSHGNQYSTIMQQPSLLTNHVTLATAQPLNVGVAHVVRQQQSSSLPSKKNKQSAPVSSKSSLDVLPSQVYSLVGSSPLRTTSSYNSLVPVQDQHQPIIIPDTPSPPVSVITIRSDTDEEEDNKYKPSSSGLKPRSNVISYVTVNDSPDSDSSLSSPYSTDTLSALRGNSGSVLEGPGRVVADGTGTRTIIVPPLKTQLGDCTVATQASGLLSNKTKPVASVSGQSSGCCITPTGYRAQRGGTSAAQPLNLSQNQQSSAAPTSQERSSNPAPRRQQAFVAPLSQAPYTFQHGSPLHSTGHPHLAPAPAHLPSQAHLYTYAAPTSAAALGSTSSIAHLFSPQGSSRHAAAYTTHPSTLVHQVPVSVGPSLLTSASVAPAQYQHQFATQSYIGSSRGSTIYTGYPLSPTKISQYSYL", "chain of UniProt Q13233 (whole entry, looked up)": "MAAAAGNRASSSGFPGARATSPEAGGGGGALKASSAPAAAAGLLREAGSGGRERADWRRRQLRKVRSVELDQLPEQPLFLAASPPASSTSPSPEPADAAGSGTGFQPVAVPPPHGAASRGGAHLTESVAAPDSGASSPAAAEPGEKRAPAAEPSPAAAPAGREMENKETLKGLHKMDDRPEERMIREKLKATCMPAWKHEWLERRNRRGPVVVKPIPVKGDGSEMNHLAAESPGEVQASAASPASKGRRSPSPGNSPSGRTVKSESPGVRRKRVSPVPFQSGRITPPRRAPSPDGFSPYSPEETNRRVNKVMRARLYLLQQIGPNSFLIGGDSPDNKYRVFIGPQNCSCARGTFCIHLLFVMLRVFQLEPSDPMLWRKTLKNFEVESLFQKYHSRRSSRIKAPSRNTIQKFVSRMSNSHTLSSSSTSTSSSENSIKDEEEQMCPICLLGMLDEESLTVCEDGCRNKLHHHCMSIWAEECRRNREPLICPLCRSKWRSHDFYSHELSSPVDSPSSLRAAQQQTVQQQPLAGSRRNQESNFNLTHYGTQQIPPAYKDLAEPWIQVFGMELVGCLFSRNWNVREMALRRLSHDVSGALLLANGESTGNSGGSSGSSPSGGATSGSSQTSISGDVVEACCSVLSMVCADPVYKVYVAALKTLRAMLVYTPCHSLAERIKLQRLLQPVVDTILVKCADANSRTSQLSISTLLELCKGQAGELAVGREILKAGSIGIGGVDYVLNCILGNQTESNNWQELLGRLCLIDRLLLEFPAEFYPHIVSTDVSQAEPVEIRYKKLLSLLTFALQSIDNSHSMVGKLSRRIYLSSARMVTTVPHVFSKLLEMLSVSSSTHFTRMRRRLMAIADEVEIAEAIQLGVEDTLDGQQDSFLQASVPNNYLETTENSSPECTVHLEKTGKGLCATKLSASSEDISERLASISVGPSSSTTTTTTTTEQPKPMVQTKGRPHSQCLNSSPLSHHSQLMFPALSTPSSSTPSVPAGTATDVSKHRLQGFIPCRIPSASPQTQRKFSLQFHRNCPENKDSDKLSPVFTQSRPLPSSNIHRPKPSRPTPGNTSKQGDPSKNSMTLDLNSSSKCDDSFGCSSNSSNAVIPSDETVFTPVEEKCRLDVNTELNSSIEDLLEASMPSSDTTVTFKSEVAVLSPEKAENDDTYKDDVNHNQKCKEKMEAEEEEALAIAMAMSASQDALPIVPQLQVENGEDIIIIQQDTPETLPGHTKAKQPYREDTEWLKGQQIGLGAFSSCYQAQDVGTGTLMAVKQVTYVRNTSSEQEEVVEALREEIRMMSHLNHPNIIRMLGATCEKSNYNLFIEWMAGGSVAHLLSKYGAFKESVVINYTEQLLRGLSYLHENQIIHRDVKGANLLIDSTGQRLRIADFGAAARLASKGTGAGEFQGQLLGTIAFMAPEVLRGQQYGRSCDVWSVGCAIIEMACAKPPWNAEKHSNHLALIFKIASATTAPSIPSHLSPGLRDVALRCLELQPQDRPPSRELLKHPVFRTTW", "chain of UniProt P07949 (whole entry, looked up)": "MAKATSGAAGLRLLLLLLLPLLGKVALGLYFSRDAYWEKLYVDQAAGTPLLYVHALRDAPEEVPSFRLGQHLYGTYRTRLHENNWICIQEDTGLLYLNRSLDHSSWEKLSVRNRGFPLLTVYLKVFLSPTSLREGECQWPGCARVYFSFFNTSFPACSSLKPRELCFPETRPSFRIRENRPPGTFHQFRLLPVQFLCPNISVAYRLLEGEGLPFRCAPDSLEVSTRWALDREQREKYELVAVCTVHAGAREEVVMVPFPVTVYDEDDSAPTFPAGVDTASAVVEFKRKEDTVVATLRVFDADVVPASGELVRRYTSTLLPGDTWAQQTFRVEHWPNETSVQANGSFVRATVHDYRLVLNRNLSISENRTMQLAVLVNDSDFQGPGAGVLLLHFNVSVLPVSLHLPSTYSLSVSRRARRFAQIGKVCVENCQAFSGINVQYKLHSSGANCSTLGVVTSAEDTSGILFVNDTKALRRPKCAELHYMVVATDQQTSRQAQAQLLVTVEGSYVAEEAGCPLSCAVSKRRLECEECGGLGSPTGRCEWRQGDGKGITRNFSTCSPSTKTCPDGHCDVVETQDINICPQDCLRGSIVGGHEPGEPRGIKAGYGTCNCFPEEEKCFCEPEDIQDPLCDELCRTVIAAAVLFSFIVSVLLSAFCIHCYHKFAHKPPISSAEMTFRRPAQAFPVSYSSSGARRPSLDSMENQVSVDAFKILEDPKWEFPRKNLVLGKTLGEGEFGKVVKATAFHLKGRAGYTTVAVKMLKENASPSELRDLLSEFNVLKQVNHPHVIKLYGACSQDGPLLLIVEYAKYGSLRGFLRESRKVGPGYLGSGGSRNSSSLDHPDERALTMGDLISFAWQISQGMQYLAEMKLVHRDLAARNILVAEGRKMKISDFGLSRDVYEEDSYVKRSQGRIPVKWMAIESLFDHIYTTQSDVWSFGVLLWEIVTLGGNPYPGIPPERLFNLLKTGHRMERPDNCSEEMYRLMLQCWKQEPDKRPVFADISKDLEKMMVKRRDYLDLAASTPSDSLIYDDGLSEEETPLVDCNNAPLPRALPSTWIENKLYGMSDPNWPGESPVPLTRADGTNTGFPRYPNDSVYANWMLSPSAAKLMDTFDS", "chain of UniProt P36507 (whole entry, looked up)": "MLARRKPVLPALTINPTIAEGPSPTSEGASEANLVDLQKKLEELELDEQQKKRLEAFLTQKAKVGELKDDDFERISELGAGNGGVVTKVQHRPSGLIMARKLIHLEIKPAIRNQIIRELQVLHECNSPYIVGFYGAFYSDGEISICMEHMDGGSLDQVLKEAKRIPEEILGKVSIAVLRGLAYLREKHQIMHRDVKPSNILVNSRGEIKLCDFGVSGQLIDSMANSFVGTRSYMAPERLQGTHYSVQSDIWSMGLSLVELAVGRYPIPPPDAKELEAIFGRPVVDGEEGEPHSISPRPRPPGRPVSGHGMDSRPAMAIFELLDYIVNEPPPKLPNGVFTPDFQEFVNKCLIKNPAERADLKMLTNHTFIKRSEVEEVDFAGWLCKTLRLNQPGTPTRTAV", "chain of UniProt P0CAW2 (whole entry, looked up)": "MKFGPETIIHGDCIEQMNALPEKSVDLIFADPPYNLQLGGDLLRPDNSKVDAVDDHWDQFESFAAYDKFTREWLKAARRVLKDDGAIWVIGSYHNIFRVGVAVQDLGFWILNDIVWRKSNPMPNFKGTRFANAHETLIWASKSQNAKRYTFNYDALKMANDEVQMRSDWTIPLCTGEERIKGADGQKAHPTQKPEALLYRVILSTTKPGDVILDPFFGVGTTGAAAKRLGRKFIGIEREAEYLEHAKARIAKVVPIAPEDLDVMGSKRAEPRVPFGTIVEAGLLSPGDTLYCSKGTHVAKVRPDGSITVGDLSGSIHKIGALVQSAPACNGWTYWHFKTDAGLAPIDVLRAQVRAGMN", "chain of UniProt P48730 (whole entry, looked up)": "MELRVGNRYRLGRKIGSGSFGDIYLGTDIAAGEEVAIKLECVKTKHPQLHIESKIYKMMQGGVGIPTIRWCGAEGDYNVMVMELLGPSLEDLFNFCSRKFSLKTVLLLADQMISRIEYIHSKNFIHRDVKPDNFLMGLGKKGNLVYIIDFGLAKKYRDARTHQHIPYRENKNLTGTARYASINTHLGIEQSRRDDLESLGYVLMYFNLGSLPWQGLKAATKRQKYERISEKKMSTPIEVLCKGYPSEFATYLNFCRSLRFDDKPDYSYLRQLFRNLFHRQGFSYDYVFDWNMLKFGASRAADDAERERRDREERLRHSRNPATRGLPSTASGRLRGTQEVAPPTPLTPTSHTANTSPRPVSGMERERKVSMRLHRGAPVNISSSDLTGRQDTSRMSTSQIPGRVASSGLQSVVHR"}
{"SMILES": "O=C(NC1CCC1)c1ccc2nc(-c3cccc(NS(=O)(=O)NCCN4CCCCC4)c3)cn2c1", "target": "Myosin light chain kinase (MYLK3, Homo sapiens, UniProt Q32MK0)", "test": "enzyme activity", "conditions": "10 µM", "remaining activity [%]": 100}
{"SMILES": "COc1cc(Nc2ncc3c(n2)-c2ccc(Cl)cc2C(c2c(F)cccc2OC)=NC3)ccc1C(=O)O", "target": "EPHB1", "test": "kinase activity", "conditions": "1 µM", "remaining activity [%]": 17}
{"SMILES": "COc1ccc(F)cc1C(=O)NCc1ccc(-c2nn([C@@H](C)C(F)(F)F)c(N)c2C(N)=O)cc1", "target": "Tyrosine-protein kinase TXK (TXK, Homo sapiens, UniProt P42681)", "test": "kinase activity, inhibitor, HotSpot radiometric", "conditions": "100 nM, added: ATP 10 µM", "remaining activity [%]": "68.4 ± 0.4"}
{"SMILES": "CNc1ncc2c(/C=C/C(=O)N3CCC(OC)CC3)nn(Cc3cccc(C(F)(F)F)c3)c2n1", "target": "Dual serine/threonine and tyrosine protein kinase (DSTYK, Homo sapiens, UniProt Q6XUX3)", "test": "kinase activity, inhibitor", "conditions": "1 µM", "scale": "reference: untreated control", "remaining activity [%]": 99}
{"SMILES": "C=CC(=O)N1CCC[C@@H](n2nc(-c3ccc(Oc4ccccc4)cc3)c3c(N)ncnc32)C1", "target": "Dual specificity mitogen-activated protein kinase kinase 2 (MAP2K2, Homo sapiens, UniProt P36507)", "test": "kinase activity, inhibitor, HotSpot radiometric", "conditions": "100 nM, added: ATP 10 µM", "remaining activity [%]": "91 ± 0.4"}
{"SMILES": "COc1cc(F)ccc1-c1ncnc(Nc2cccc(C[S@](C)(=N)=O)c2)n1", "target": "Phosphatidylinositol 3-kinase C2 domain-containing subunit gamma (PIK3C2G, Homo sapiens, UniProt O75747)", "test": "kinase activity", "conditions": "10 µM, added: 10 µM ATP", "remaining activity [%]": 101}
{"SMILES": "Cc1cc(Nc2cc(N3CCN(C)CC3)nc(Sc3ccc(NC(=O)C4CC4)cc3)n2)[nH]n1", "target": "HIPK1", "test": "kinase activity, KinaseProfiler", "conditions": "0.03 µM, species human", "scale": "reference: control", "remaining activity [%]": 94}
{"SMILES": "C[C@H]1[C@H](OC(=O)CCC(=O)O)O[C@@H]2O[C@@]3(C)CC[C@H]4[C@H](C)CC[C@@H]1[C@@]24OO3", "target": "Non-structural polyprotein pORF1, helicase domain (Hepatitis E virus genotype 1, UniProt P33424)", "test": "ATPase activity, inhibitor, colorimetric", "conditions": "19.5 µM, preincubation 30 min, added: ATP 500 µM", "scale": "reference: untreated", "remaining activity [%]": 58.3}
{"SMILES": "c1cnc2ccc(Nc3nc(NC4CC4)c4nc[nH]c4n3)cc2c1", "target": "Tyrosine-protein kinase receptor UFO (AXL, Homo sapiens, UniProt P30530)", "test": "kinase activity, inhibitor, SelectScreen kinase profiling", "conditions": "1 µM", "scale": "reference: control", "remaining activity [%]": 79}
{"SMILES": "C=CC(=O)N1CCC([C@@H]2CCNc3c(C(N)=O)c(-c4ccc(Oc5ccccc5)cc4)nn32)CC1", "target": "RET", "test": "kinase activity, inhibitor, HotSpot radiometric", "conditions": "100 nM, added: ATP 10 µM", "remaining activity [%]": "103.4 ± 1"}
{"SMILES": "C[C@@H](Oc1ccc(S(C)(=O)=O)cc1C(=O)N1C[C@@H]2C[C@]2(c2cc(C(F)(F)F)on2)C1)C(F)(F)F", "target": "Sodium- and chloride-dependent glycine transporter 1 (SLC6A9, Homo sapiens, UniProt P48067)", "test": "glycine uptake, inhibitor, [3H]glycine uptake", "conditions": "0.0001 µM, log concentration -1, added: [3H]glycine, 3.5 mg/mL methyl-β-cyclodextrin", "scale": "reference: no inhibitor", "remaining activity [%]": 96.7}
{"SMILES": "CC(C)OCCn1c(=S)[nH]c(=O)c2[nH]ccc21", "target": "Myeloperoxidase (MPO, Homo sapiens, UniProt P05164)", "test": "LDL lipid peroxidation, inhibitor, cholesteryl ester hydroperoxide", "conditions": "0.0137 µM", "remaining activity [%]": 106}
{"SMILES": "Nc1ncnc2c1ncn2C1OC(CSCCNCc2cccc(-c3ccccc3)c2)C(O)C1O (stereo not shown)", "target": "DNA methyltransferase CcrM (ccrMIM, Caulobacter vibrioides, UniProt P0CAW2)", "conditions": "10 µM", "remaining activity [%]": 53.2}
{"SMILES": "COc1cc(N2CCN(C)CC2)ccc1Nc1nc(N)n(C(=S)NCc2c(Cl)cccc2Cl)n1", "target": "MAP3K1", "test": "enzyme activity", "conditions": "10 µM", "scale": "reference: control", "remaining activity [%]": 0}
{"SMILES": "COc1ccc(C(=O)CSc2nc3ccc([N+](=O)[O-])cc3s2)cc1", "target": "Threonine--tRNA ligase (thrS, Staphylococcus aureus, UniProt Q2FXP7)", "test": "aminoacylation", "conditions": "100 µM", "remaining activity [%]": 11.5}
{"SMILES": "Nc1nc(NC2CCCCC2)sc1C(=O)c1ccccc1", "target": "Casein kinase I isoform delta (CSNK1D, Homo sapiens, UniProt P48730)", "test": "enzyme activity, inhibitor", "conditions": "10 µM", "remaining activity [%]": 82}
{"SMILES": "COc1cc(-c2cncc3c2CN(C)Cc2cc(N4CCNCC4)ccc2-3)cc(OC)c1OC", "target": "DNA-dependent protein kinase catalytic subunit (PRKDC, Homo sapiens, UniProt P78527)", "test": "kinase activity", "conditions": "1 µM, human enzyme, added: ATP 10 µM", "scale": "reference: DMSO control", "remaining activity [%]": 106}
{"SMILES": "O=C(O)c1ccc(Nc2ncc3c(n2)-c2ccc(Cl)cc2C(c2c(F)cccc2F)=NC3)cc1", "target": "human IRR(h)", "test": "kinase activity", "conditions": "1 µM", "remaining activity [%]": 95}
{"SMILES": "COc1cc(/C=C/C(=O)CC(=O)/C=C/c2ccc(O)c(OC)c2)ccc1O", "target": "phosphorylase kinase", "conditions": "1 µM", "scale": "reference: DMSO", "remaining activity [%]": 10}
{"SMILES": "FC(F)(F)Oc1cccc(-c2cnc3ccc(-c4ccncc4)nn23)c1", "target": "Serine/threonine-protein kinase Pink1, mitochondrial (Pink1, Tribolium castaneum, UniProt D6WMX4)", "conditions": "1 µM", "remaining activity [%]": 102}
{"SMILES": "COc1cc(N2CCN(C)CC2)ccc1Nc1nc(N)n(C(=O)NCc2c(Cl)cccc2Cl)n1", "target": "MAP3K1", "test": "enzyme activity", "conditions": "10 µM", "scale": "reference: control", "remaining activity [%]": 12}
{"SMILES": "NC/C(=C\\F)COc1cccc(Cn2c(=S)[nH]c(=O)c3[nH]cnc32)c1", "target": "Peroxidasin homolog (PXDN, Homo sapiens, UniProt Q92626)", "test": "Amplex UltraRed", "conditions": "20 µM", "scale": "reference: control", "remaining activity [%]": 21.5}
{"SMILES": "C=CC(=O)N1CCC[C@@H](n2nc(-c3ccc(Oc4ccccc4)cc3)c3c(N)ncnc32)C1", "target": "RET", "conditions": "1 µM", "remaining activity [%]": 121}
{"SMILES": "O=C1NC(=O)/C(=C/c2ccc(-c3ccc(F)cc3O)o2)S1", "target": "Ribosomal protein S6 kinase beta-1 (RPS6KB1, Homo sapiens, UniProt P23443)", "test": "enzyme activity", "conditions": "10 µM", "remaining activity [%]": 43}
{"SMILES": "Nc1ncc2c(n1)-c1c([nH]c3ccc(-c4ccc(F)cc4)cc13)CCC2", "target": "HIPK1", "test": "kinase activity, inhibitor, radiometric", "conditions": "1 µM, added: ATP at Km", "remaining activity [%]": 73}
